# Results pooled from the literature.
# Numbered parts are unrelated; each lists some results of a single study. Several values in a cell are separate wells, animals, samples, runs or records.
# Sequence of UniProt P10721 (whole entry, unmodified, looked up): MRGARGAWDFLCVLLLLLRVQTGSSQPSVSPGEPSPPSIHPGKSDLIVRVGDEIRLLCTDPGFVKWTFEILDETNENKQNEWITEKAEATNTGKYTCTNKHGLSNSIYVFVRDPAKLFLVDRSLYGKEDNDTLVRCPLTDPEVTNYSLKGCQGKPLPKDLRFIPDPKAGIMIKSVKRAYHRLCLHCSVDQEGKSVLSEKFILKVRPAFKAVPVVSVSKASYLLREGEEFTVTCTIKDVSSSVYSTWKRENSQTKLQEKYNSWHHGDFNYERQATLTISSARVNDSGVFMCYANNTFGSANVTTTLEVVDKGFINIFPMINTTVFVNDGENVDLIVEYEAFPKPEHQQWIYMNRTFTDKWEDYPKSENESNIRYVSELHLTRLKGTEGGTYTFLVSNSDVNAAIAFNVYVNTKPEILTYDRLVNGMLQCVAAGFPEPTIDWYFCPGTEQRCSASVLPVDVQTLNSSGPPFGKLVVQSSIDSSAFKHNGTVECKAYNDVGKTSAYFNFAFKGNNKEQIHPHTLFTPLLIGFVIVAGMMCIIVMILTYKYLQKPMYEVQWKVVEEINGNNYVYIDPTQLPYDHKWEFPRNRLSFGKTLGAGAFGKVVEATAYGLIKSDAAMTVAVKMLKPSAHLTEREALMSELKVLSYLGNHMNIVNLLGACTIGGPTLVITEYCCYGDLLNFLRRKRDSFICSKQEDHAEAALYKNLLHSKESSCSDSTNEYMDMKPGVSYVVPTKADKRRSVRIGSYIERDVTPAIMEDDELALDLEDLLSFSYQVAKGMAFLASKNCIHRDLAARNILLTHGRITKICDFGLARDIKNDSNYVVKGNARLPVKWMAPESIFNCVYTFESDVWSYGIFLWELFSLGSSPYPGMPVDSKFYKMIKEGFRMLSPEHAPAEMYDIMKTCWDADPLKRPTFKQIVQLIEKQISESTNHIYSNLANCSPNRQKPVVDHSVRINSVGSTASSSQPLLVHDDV
# Sequence of UniProt P41743 (whole entry, looked up): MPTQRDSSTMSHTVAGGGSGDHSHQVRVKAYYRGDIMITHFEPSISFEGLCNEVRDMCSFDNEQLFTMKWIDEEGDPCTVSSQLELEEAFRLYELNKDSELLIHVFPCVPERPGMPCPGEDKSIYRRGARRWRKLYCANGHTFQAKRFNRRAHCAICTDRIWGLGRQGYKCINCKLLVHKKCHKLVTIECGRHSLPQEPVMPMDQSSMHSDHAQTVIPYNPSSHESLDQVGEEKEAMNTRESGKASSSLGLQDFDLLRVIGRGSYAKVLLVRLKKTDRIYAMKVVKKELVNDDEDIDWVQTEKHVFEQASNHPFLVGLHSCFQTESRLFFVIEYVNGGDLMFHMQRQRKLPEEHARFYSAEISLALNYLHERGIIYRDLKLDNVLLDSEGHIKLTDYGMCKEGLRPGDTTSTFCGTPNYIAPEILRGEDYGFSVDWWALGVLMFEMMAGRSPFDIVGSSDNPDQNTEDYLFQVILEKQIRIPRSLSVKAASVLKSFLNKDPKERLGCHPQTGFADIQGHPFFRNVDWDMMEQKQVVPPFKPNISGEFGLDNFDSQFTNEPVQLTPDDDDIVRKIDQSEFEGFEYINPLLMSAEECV
# Sequence of UniProt P52564 (whole entry, looked up): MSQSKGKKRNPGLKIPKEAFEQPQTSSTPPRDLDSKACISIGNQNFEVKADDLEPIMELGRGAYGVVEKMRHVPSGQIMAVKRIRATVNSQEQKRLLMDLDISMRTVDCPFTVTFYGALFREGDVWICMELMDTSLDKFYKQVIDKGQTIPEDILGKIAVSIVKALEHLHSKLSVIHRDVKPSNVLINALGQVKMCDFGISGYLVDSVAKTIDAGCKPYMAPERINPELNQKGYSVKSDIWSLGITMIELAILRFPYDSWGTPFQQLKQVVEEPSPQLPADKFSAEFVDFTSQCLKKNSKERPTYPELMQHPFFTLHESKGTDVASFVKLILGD
# Sequence of UniProt Q9BYP7 (whole entry, looked up): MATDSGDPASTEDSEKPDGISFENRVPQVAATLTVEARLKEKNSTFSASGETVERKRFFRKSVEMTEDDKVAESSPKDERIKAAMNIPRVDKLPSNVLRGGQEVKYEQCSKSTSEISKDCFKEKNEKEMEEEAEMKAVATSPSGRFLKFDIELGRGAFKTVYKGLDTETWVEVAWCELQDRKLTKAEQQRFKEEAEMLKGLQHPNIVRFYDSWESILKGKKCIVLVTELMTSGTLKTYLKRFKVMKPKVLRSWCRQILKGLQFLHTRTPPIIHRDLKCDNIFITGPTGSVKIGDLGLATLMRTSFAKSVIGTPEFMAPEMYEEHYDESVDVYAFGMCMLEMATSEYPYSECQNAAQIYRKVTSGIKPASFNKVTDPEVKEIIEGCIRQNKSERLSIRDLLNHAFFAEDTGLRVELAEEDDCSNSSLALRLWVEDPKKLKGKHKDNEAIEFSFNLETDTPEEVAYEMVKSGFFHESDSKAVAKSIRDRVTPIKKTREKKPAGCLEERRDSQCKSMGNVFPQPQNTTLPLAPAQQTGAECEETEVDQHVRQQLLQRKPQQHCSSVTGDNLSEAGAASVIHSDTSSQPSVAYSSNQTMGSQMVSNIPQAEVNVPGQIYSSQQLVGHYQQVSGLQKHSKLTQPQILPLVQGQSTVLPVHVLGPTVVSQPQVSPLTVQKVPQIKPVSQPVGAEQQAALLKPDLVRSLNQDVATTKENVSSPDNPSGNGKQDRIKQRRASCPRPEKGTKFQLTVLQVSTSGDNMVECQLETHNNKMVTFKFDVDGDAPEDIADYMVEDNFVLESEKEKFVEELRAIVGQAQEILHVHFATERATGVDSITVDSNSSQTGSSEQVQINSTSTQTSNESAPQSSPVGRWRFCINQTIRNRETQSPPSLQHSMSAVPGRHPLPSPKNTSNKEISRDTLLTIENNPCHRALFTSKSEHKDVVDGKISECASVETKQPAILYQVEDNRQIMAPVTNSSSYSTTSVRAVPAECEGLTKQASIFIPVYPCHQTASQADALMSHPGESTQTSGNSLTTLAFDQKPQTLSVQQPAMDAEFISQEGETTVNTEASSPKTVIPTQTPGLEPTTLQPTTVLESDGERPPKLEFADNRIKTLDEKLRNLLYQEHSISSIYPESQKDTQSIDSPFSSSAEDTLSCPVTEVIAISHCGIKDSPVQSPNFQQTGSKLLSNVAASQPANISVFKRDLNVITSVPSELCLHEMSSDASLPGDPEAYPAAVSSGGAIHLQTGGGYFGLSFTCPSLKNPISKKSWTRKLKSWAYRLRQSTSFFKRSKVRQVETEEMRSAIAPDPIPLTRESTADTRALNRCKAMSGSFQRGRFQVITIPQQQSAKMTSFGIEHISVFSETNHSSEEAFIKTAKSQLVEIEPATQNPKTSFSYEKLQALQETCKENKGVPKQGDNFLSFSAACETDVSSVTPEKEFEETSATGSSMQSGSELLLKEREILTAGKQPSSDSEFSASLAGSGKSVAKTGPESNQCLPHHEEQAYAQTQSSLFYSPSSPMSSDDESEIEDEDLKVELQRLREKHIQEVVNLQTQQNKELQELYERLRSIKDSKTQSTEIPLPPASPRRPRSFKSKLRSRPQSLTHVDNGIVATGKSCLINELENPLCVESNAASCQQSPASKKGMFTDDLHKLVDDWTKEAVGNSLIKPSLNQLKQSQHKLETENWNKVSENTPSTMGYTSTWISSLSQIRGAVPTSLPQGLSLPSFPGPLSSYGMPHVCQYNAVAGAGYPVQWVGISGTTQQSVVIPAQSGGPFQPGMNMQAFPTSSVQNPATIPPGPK
# Sequence of UniProt P53671 (whole entry, looked up): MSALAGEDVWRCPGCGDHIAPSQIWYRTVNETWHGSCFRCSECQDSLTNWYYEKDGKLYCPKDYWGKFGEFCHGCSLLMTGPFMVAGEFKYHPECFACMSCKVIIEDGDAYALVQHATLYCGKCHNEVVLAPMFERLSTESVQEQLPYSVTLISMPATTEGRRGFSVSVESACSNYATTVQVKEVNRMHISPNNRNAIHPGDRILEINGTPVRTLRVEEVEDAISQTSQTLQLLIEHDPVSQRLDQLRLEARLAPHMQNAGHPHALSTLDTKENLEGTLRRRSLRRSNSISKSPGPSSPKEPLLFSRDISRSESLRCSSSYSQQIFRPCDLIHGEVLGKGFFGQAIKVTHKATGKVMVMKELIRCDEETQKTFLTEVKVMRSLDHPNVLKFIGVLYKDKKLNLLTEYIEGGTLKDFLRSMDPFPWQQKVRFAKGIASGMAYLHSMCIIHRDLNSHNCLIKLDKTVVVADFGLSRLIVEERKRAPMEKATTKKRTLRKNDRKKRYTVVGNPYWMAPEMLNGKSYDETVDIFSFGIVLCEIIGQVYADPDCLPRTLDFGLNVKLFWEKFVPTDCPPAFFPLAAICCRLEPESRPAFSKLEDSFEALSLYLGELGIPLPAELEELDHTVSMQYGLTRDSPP

# Sample 1 — read-out: enzyme activity; action: inhibitor; tested at: 10 µM
# Target: Calcium/calmodulin-dependent protein kinase type II subunit alpha (CAMK2A, Homo sapiens, UniProt Q9UQM7)
# Sequence of UniProt Q9UQM7 (whole entry, looked up): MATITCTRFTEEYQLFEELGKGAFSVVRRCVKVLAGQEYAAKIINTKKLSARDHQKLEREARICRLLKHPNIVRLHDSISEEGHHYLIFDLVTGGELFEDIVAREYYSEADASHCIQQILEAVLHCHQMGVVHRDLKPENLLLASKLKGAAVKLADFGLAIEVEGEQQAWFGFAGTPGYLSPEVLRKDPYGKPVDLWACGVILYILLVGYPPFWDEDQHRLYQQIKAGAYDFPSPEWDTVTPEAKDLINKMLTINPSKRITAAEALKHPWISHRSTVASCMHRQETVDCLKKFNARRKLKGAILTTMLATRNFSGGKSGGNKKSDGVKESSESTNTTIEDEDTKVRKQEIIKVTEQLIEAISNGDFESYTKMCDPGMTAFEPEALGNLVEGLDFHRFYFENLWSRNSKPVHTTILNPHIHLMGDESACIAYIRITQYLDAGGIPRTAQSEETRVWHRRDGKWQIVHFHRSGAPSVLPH
SMILES,inhibition
C=C[C@@H]1C[C@]1(NC(=O)[C@@H]1C[C@@H](Oc2ncc(OC)c3ccc(Cl)cc23)CN1C(=O)[C@@H](NC(=O)OC(C)(C)C)C(C)(C)C)C(=O)NS(=O)(=O)C1CC1,-10%
C[C@@H]1CCC[C@H](C)N1CCCC(O)(c1ccccc1)c1ccccn1 (stereo partly shown),1%
Oc1nc(O)c2cn[nH]c2n1,-22%
C=C[C@H]1[C@H](O[C@@H]2O[C@H](CO)[C@@H](O)[C@H](O)[C@H]2O)OC=C(C(=O)OC)[C@H]1CCOC(=O)c1cccc(O[C@@H]2O[C@H](CO)[C@@H](O)[C@H](O)[C@H]2O)c1O,-4%
O=C(NCCO[N+](=O)[O-])c1cccnc1,3%
C[n+]1cc2c3c(ccc2c2ccc4cc5c(cc4c21)OCO5)OCO3,9%
O=C(/C=C/c1ccccc1)OCc1ccccc1,-25%
O=C(CCCCCCCCc1ccc(O)cc1)c1c(O)cccc1O,2%
CCC(C(=O)O)c1ccccc1 (stereo not shown),-40%
O=c1cc(-c2ccccc2)oc2c(O)c(O)ccc12,-58%
Nc1ccn([C@H]2CC[C@@H](CO)O2)c(=O)n1,-3%
CC(C)(CO)C(O)C(=O)NCCCO (racemic),-4%
O=c1c(O)c(-c2ccc(O)c(O)c2)oc2c(O[C@@H]3O[C@H](CO)[C@@H](O)[C@H](O)[C@H]3O)c(O)cc(O)c12,7%
CC(=O)[C@H]1CC[C@H]2[C@@H]3CC=C4C[C@@H](OS(=O)(=O)O)CC[C@]4(C)[C@H]3CC[C@]12C,14%
CC(C)=CC[C@]12Oc3cc(O)c([C@H]4C=C(C)C[C@H](c5ccc(O)cc5O)[C@H]4C(=O)c4ccc(O)cc4O)c(O)c3C(=O)[C@@]1(O)Oc1cc(O)ccc12,41%

# Sample 2 — tested at: 1 µM
# Structure (SMILES): C=CC(=O)N1CCC([C@@H]2CCNc3c(C(N)=O)c(-c4ccc(Oc5ccccc5)cc4)nn32)CC1
target,read-out,action,inhibition [%]
"Phosphatidylinositol 4,5-bisphosphate 3-kinase catalytic subunit alpha isoform (PIK3CA, Homo sapiens, UniProt P42336, E545A)",enzyme activity,inhibitor,7
"Tyrosine-protein kinase ITK/TSK (ITK, Homo sapiens, UniProt Q08881)",enzyme activity,inhibitor,60
"Serine/threonine-protein kinase Chk2 (CHEK2, Homo sapiens, UniProt O96017)",enzyme activity,inhibitor,0
"Activin receptor type-2A (ACVR2A, Homo sapiens, UniProt P27037)",enzyme activity,inhibitor,22
"TGF-beta receptor type-2 (TGFBR2, Homo sapiens, UniProt P37173)",cell-free assay,,0
"Serine/threonine-protein kinase WNK3 (WNK3, Homo sapiens, UniProt Q9BYP7)",enzyme activity,inhibitor,11
"Death-associated protein kinase 1 (DAPK1, Homo sapiens, UniProt P53355)",enzyme activity,inhibitor,11
"Platelet-derived growth factor receptor alpha (PDGFRA, Homo sapiens, UniProt P16234)",enzyme activity,inhibitor,8
"Mitogen-activated protein kinase kinase kinase 1 (MAP3K1, Homo sapiens, UniProt Q13233)",enzyme activity,inhibitor,0
"Activin receptor type-1-like (ACVRL1, Homo sapiens, UniProt P37023)",enzyme activity,inhibitor,0
"Activated CDC42 kinase 1 (TNK2, Homo sapiens, UniProt Q07912)",enzyme activity,inhibitor,43
"Tyrosine-protein kinase receptor TYRO3 (TYRO3, Homo sapiens, UniProt Q06418)",cell-free assay,,47
"Phosphatidylinositol 4,5-bisphosphate 3-kinase catalytic subunit gamma isoform (PIK3CG, Homo sapiens, UniProt P48736)",enzyme activity,inhibitor,0
"Ribosomal protein S6 kinase alpha-4, N-terminal kinase domain (RPS6KA4, Homo sapiens, UniProt O75676)",,inhibitor,21
"Mast/stem cell growth factor receptor Kit (KIT, Homo sapiens, UniProt P10721, V559D/V654A)",enzyme activity,inhibitor,12
"Fibroblast growth factor receptor 3 (FGFR3, Homo sapiens, UniProt P22607)",cell-free assay,,15
"LIM domain kinase 2 (LIMK2, Homo sapiens, UniProt P53671)",enzyme activity,inhibitor,0

# Sample 3 — cell line: normal organoid sample D; method: CellTiter-Glo; species: human; medium: normal-adjacent epithelium; tested at: 1 µM; baseline: DMSO
SMILES,viability
O=C(NS(=O)(=O)c1ccc(NCC2CCOCC2)c([N+](=O)[O-])c1)c1ccc(N2CCN(Cc3ccc(C(F)(F)F)cc3-c3ccc(Cl)cc3)CC2)cc1Oc1cnc2[nH]ccc2c1,98.4% and 69.8%
CO[C@@H](C)c1c(Nc2ccc([C@@H](N(C)C(=O)C3CCS(=O)(=O)CC3)C(F)(F)F)cc2)cnc2cc(Cl)nn12,100% and 114%
Cc1c(NC(=O)c2ccc(C(C)(C)C)cc2)cccc1-c1cn(C)c(=O)c(Nc2ccc(C(=O)N3CCOCC3)cc2)n1,67.2% and 98.7%
O=c1nc(-c2ccccn2)sc2ccccc12,130% and 103%
Cn1cc(Cl)c2c(Oc3c(F)cc(Nc4cc(Cl)nc(N)n4)cc3F)ccnc21,105% and 96.6%
CC(=O)N1CCC(c2ccc(C(=O)NC(=N)N)cc2C(F)(F)F)CC1,104% and 114%
CC(=O)C1=C(C)N(c2cccc(C(F)(F)F)c2)C(=O)N[C@H]1c1ccc(C#N)nc1,105% and 99%
C[C@H](NC(=O)Nc1cc2[nH]ncc2c(CO)n1)c1ccccn1,104% and 79.5%
CC(=O)Nc1c(C(C)=O)c(=O)n(C)c2nc(-c3ccc(Cl)cc3Cl)c(-c3ccc(Cl)cc3)cc12,127% and 100%
Cc1ccc2nc(CNCCCOc3ccccc3)cc(O)c2c1,144% and 111%
CC(=O)c1c(NS(C)(=O)=O)c2cc(-c3ccc(Cl)cc3)c(-c3ccc(Cl)cc3Cl)nc2n(C)c1=O,98% and 88.9%
CN(C)CC#Cc1ccc(OCCCc2sc(N3CCc4cccc(C(=O)Nc5nc6ccccc6s5)c4C3)nc2C(=O)O)c(F)c1,39% and 125%

# Sample 4 — Compound: O=c1cc(N2CCOCC2)oc2c1ccc1ccccc12; read-out: enzyme activity; action: inhibitor; tested at: 0.5 µM; baseline: control
target,remaining activity
"Mitogen-activated protein kinase kinase kinase kinase 2 (MAP4K2, Homo sapiens, UniProt Q12851)",118%
"Mast/stem cell growth factor receptor Kit (KIT, Homo sapiens, UniProt P10721)",105%
"Serine/threonine-protein kinase PLK2 (PLK2, Homo sapiens, UniProt Q9NYY3)",106%
"Casein kinase I isoform alpha (CSNK1A1, Homo sapiens, UniProt P48729)",115%
"Dual specificity mitogen-activated protein kinase kinase 6 (MAP2K6, Homo sapiens, UniProt P52564)",94.1%
"MAP kinase-interacting serine/threonine-protein kinase 2 (MKNK2, Homo sapiens, UniProt Q9HBH9)",88.5%
"RAC-gamma serine/threonine-protein kinase (AKT3, Homo sapiens, UniProt Q9Y243)",98.3%
"Cyclin-dependent kinase 9, with cyclin T1 (CDK9, Homo sapiens, UniProt P50750)",99.1%
"Mitogen-activated protein kinase 12 (MAPK12, Homo sapiens, UniProt P53778)",97.4%
"Protein kinase C iota type (PRKCI, Homo sapiens, UniProt P41743)",95.5%
"Interleukin-1 receptor-associated kinase 4 (IRAK4, Homo sapiens, UniProt Q9NWZ3)",122%
"Serine/threonine-protein kinase Nek4 (NEK4, Homo sapiens, UniProt P51957)",97.4%
"Serine/threonine-protein kinase Chk1 (CHEK1, Homo sapiens, UniProt O14757)",104%
"Tyrosine-protein kinase Lyn (LYN, Homo sapiens, UniProt P07948)",102%
"Serine/threonine-protein kinase WNK2 (WNK2, Homo sapiens, UniProt Q9Y3S1)",103%
"Mitogen-activated protein kinase 13 (MAPK13, Homo sapiens, UniProt O15264)",99.8%
"Casein kinase II subunit alpha (CSNK2A1, Homo sapiens, UniProt P68400)",70.9%
"Protein kinase C delta type (PRKCD, Homo sapiens, UniProt Q05655)",95.1%
"Ephrin type-A receptor 5 (EPHA5, Homo sapiens, UniProt P54756)",110%
"Leucine-rich repeat serine/threonine-protein kinase 2 (LRRK2, Homo sapiens, UniProt Q5S007)",96.9%
"Mitogen-activated protein kinase kinase kinase 10 (MAP3K10, Homo sapiens, UniProt Q02779)",102%
"Tyrosine-protein kinase BTK (BTK, Homo sapiens, UniProt Q06187)",112%
"cGMP-dependent protein kinase 1 (PRKG1, Homo sapiens, UniProt Q13976)",94.6%

# For quick reference, copied from above (sample 1):
SMILES,inhibition
O=c1cc(-c2ccccc2)oc2c(O)c(O)ccc12,-58%
O=C(NCCO[N+](=O)[O-])c1cccnc1,3%
O=C(/C=C/c1ccccc1)OCc1ccccc1,-25%
CC(=O)[C@H]1CC[C@H]2[C@@H]3CC=C4C[C@@H](OS(=O)(=O)O)CC[C@]4(C)[C@H]3CC[C@]12C,14%
Oc1nc(O)c2cn[nH]c2n1,-22%
CCC(C(=O)O)c1ccccc1 (stereo not shown),-40%
CC(C)=CC[C@]12Oc3cc(O)c([C@H]4C=C(C)C[C@H](c5ccc(O)cc5O)[C@H]4C(=O)c4ccc(O)cc4O)c(O)c3C(=O)[C@@]1(O)Oc1cc(O)ccc12,41%
